Assay results of several laboratories.
A part holds a random share of what one study measured.

Series 1
Target: Replicase polyprotein 1ab, nsp13 helicase (rep, Severe acute respiratory syndrome coronavirus 2, UniProt P0DTD1)
Mode: inhibitor
Concentration: 20 µM
Compound | inhibition [%]
CC(C)n1nc(-c2ccc3oc(N)nc3c2)c2c(N)ncnc21 | 1.71
CCC(=O)O[C@@H]1CC(=O)O[C@H](C)C/C=C/C=C/[C@H](O)[C@H](C)C[C@H](CC=O)[C@H](O[C@@H]2O[C@H](C)[C@@H](O[C@H]3C[C@@](C)(O)[C@@H](OC(=O)CC)[C@H](C)O3)[C@H](N(C)C)[C@H]2O)[C@H]1OC | -0.82
CC(=O)Nc1ccc(OCC(O)CNC(C)C)cc1 (stereo not shown) | 2.49
Cc1ccc2cc(-c3c(C)ccc(C(=O)c4c(-c5ccccc5)n(C)n(-c5ccccc5)c4=O)c3N)ccc2n1 | -4.71
Cc1ccc(-c2c(-c3nn(C)c4ncnc(N5CC[C@H](N6CCCCC6)C5)c34)cnn2C)cc1 | 3.39
C[n+]1ccccc1C=NO | 4.27
CCCOC(=O)c1ccccc1 | 3.98
O=C1c2c(O)cc(O)cc2O[C@H](c2ccc(O)c(O)c2)[C@H]1O | 5.82
CC(C)c1cc(C(=O)N2Cc3ccc(CN4CCN(C)CC4)cc3C2)c(O)cc1O | -0.73
CC1(COc2ccc(CC3SC(=O)NC3=O)cc2)CCCCC1 (stereo not shown) | 9.8
C=CCSCC1Nc2cc(Cl)c(S(N)(=O)=O)cc2S(=O)(=O)N1 (stereo not shown) | 0.81
Nc1ncnc2c1c(-c1ccc(Cl)cc1)nn2-c1cccc(-c2cnnn2Cc2cccc(-c3ccccc3)c2)c1 | 8.37
CC(C)(C)NC[C@H](O)COc1nsnc1N1CCOCC1 | 0.28
CNCCc1ccc(O)c(O)c1 | 1.9
NS(=O)(=O)Oc1ccc2c3c(c(=O)oc2c1)CCCCC3 | 5.64
COc1cc(C[C@@H](CO[C@@H]2O[C@H](CO)[C@@H](O)[C@H](O)[C@H]2O)[C@H](CO[C@@H]2O[C@H](CO)[C@@H](O)[C@H](O)[C@H]2O)Cc2ccc(O)c(OC)c2)ccc1O | -1.96
COc1cc2nc(N3CCN(C(=O)C4CCCO4)CC3)nc(N)c2cc1OC (stereo not shown) | 9.81
COc1ccccc1OC(=O)C(C)c1ccc(CC(C)C)cc1 (stereo not shown) | 0.78
Fc1ccc([C@@H]2CCNC[C@H]2COc2ccc3c(c2)OCO3)cc1 | 0.84
CCN(CC)CCCCC(NC(=O)c1ccc([N+](=O)[O-])cc1)c1ccccc1 (stereo not shown) | 3.39

Series 2
Target: Interferon regulatory factor 3, full length, phosphomimetic (IRF3, Homo sapiens, UniProt Q14653, residues 1-427, S386D/S396D/S398D/S402D/T404D/S405D)
Technique: protein-binding microarray
Form: double-stranded DNA, one strand shown
Sample: in vitro
Concentration: 2540 nM top
Notes: 60-bp whole probe
Together with: salmon DNA 0.4 mg/ml
Relative to: random background probes
Reading: higher = stronger binding
Shared flanks, not repeated: GCCTAGCAC … GTCTTGATTCGCTTGACGCTGCTG
Construct (chain): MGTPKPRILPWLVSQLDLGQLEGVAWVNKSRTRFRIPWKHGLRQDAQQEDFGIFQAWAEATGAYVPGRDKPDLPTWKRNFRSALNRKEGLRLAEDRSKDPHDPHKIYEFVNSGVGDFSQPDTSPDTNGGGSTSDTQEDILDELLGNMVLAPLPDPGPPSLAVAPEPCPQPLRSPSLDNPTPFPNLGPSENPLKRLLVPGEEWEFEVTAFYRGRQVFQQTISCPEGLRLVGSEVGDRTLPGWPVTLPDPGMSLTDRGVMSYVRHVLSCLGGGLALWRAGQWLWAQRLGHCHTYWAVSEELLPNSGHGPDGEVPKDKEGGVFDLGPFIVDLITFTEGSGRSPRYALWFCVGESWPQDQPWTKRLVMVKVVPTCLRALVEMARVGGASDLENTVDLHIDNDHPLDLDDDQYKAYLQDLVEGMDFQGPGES
Sequence | fitted relative affinity [z-score]
TCAATACTCTTCCATGGAACTGTGCTA | -0.0683
CCCTAGTTGTGTCTTGCCATGTGCTAG | 0.448
CATTTATTTACTCTCTACATGTGCTAG | 2.74
GTAGAACTGGGGACTGGATTAGTGCTA | -0.725
GACGGTCTCGGTGTCGGGACGTGCTAG | 0.655
GACGATTTCGGGACTGGATACGTGCTA | 1.97
TTAGAAGTGAGTTTCGATTAGTGCTAG | 2.58
TTAGGTGTCGACTATCGGTTAGTGCTA | 0.921

Series 3
Target: Histone acetyltransferase KAT6A, both winged helices, GST fusion (KAT6A, Homo sapiens, UniProt Q92794, residues 1-181)
Technique: protein binding microarray
Form: double-stranded DNA, one strand shown
Sample: in vitro
Concentration: not given
Notes: 8-mer, flanks averaged, mean of 2 arrays, mostly near background
Relative to: not given
Reading: higher = stronger binding
Target sequence (chain): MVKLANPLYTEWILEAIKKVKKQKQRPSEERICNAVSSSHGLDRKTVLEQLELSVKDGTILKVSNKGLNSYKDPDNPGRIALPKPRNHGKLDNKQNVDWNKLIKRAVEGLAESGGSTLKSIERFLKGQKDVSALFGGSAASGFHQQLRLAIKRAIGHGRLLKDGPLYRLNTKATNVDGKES
Sequence | E-score
CAGCTCAC | -0.135
CACATAAG | 0.0229
ATTTTCCA | -0.094
ATTGTTAC | -0.0411
GCTCTCAC | 0.00773
AATCCATG | -0.118
ATATTTCG | -0.0464
AAAAGATT | -0.0333

Mixed results
Target: Replicase polyprotein 1ab, main protease (rep, Severe acute respiratory syndrome coronavirus 2, UniProt P0DTD1)
Read-out: enzyme activity
Mode: inhibitor
Concentration: 20 µM
Compound | setting | inhibition [%]
CC1(C)CN2C(CS/C(=N/C3CCCCC3)NC3CCCCC3)=CSC2=N1 | primary screen | 29.5
Cc1cc2nc3ccc(N(C)C)cc3[s+]c2cc1N | primary screen | 26.5
c1ccc2sc(SNC3CCCCC3)nc2c1 | with DTT | -16.4
CC1=C(/C=C/C(C)=C/C=C/C(C)=C/C(=O)O)C(C)(C)CCC1 | hit confirmation, with DTT | 5

Repeated from above (series 2):
Sequence | fitted relative affinity [z-score]
CATTTATTTACTCTCTACATGTGCTAG | 2.74
GTAGAACTGGGGACTGGATTAGTGCTA | -0.725
GACGGTCTCGGTGTCGGGACGTGCTAG | 0.655
